Measured values pooled from the literature.
Lines come from different studies, so protocols differ. ± marks the error that the study gave.
SIGMAR1: Sigma non-opioid intracellular receptor 1 (SIGMAR1, Homo sapiens, UniProt Q99720)
Sequence of UniProt Q99720 (whole entry, looked up): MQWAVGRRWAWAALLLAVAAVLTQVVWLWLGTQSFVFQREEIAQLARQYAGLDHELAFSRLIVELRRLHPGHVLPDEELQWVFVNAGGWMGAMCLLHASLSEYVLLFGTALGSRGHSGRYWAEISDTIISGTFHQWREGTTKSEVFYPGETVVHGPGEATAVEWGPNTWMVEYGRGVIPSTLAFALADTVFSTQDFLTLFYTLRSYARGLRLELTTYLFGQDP
PIK3CA: Phosphatidylinositol 4,5-bisphosphate 3-kinase catalytic subunit alpha isoform (PIK3CA, Homo sapiens, UniProt P42336)
Sequence of UniProt P42336 (whole entry, looked up): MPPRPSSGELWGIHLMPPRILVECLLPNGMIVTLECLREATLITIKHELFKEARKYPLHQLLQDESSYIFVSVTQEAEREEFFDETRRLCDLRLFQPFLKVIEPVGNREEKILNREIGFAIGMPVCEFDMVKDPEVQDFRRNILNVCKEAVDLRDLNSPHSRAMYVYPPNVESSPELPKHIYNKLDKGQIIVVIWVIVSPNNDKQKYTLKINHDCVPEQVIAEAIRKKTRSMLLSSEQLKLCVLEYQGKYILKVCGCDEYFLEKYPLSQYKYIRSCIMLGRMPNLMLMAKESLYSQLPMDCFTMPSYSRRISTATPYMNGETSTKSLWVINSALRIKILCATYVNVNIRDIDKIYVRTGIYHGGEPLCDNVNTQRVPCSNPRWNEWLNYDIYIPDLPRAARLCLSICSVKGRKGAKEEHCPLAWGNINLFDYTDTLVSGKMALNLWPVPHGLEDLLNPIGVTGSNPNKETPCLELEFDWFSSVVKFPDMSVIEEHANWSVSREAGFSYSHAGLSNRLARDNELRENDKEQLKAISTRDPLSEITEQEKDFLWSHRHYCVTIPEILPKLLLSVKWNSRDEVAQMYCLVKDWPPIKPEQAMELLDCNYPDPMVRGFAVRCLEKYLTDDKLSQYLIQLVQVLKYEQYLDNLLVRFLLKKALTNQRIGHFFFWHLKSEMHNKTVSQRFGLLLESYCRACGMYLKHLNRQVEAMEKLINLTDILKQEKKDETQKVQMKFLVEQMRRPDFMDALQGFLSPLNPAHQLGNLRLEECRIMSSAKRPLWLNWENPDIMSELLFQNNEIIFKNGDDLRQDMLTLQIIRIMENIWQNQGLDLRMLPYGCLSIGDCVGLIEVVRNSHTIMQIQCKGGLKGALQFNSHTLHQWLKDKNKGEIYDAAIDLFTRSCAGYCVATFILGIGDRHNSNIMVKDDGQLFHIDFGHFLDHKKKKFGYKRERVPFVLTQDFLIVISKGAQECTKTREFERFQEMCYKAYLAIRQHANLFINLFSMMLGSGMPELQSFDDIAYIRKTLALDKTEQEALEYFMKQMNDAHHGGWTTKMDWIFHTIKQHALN
Slc6a4: Sodium-dependent serotonin transporter (Slc6a4, Rattus norvegicus, UniProt P31652)
Sequence of UniProt P31652 (whole entry, looked up): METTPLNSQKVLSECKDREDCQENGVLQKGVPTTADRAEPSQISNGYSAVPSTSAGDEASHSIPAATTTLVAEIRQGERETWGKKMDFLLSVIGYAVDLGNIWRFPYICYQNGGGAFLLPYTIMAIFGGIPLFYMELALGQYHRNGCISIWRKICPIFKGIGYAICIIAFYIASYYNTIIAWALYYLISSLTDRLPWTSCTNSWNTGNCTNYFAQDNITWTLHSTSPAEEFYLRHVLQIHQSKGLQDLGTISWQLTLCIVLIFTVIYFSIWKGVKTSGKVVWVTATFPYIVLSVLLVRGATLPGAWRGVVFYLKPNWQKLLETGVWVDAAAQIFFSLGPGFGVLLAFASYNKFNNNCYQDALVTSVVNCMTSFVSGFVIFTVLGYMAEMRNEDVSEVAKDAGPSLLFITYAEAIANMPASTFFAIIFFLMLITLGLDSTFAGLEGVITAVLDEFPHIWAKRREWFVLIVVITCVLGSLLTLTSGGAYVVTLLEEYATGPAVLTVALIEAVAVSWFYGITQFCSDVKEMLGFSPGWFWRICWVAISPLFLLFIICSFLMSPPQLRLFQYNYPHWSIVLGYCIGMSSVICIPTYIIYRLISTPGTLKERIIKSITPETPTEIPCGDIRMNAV
Sequence of UniProt Q9Y2K2 (whole entry, looked up): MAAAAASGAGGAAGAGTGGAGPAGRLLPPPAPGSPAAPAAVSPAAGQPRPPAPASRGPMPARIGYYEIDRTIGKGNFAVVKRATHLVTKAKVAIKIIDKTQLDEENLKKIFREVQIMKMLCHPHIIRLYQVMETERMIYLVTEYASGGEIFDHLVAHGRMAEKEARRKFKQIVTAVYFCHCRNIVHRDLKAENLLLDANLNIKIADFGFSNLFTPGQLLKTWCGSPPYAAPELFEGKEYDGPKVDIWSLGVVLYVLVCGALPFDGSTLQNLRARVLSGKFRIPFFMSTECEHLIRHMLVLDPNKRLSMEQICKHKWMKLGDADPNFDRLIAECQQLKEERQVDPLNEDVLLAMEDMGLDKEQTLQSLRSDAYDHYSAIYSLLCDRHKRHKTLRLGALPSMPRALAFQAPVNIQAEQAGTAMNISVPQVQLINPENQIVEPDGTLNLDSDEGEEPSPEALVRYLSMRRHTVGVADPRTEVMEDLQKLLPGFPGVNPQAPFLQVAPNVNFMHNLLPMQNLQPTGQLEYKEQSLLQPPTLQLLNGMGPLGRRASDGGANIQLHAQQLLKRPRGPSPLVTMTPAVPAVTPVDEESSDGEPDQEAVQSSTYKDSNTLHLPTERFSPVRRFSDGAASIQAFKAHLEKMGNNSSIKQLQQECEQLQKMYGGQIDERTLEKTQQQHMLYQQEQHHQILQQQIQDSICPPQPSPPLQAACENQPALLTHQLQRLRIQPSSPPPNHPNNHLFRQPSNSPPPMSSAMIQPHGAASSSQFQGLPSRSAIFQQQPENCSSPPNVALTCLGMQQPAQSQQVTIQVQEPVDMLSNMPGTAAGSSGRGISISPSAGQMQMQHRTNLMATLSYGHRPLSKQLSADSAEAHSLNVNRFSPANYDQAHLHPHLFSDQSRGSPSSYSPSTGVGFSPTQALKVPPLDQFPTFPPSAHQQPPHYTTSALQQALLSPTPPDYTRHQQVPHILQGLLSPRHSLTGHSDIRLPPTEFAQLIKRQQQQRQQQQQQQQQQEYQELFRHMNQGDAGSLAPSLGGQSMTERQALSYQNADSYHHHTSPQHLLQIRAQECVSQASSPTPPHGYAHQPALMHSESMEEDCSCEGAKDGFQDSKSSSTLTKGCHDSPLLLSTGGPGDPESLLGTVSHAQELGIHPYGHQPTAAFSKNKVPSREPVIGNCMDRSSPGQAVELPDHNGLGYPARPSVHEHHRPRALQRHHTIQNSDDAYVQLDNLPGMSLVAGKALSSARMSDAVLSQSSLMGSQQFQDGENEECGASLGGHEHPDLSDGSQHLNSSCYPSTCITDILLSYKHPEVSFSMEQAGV
Sequence of UniProt P09884 (whole entry, looked up): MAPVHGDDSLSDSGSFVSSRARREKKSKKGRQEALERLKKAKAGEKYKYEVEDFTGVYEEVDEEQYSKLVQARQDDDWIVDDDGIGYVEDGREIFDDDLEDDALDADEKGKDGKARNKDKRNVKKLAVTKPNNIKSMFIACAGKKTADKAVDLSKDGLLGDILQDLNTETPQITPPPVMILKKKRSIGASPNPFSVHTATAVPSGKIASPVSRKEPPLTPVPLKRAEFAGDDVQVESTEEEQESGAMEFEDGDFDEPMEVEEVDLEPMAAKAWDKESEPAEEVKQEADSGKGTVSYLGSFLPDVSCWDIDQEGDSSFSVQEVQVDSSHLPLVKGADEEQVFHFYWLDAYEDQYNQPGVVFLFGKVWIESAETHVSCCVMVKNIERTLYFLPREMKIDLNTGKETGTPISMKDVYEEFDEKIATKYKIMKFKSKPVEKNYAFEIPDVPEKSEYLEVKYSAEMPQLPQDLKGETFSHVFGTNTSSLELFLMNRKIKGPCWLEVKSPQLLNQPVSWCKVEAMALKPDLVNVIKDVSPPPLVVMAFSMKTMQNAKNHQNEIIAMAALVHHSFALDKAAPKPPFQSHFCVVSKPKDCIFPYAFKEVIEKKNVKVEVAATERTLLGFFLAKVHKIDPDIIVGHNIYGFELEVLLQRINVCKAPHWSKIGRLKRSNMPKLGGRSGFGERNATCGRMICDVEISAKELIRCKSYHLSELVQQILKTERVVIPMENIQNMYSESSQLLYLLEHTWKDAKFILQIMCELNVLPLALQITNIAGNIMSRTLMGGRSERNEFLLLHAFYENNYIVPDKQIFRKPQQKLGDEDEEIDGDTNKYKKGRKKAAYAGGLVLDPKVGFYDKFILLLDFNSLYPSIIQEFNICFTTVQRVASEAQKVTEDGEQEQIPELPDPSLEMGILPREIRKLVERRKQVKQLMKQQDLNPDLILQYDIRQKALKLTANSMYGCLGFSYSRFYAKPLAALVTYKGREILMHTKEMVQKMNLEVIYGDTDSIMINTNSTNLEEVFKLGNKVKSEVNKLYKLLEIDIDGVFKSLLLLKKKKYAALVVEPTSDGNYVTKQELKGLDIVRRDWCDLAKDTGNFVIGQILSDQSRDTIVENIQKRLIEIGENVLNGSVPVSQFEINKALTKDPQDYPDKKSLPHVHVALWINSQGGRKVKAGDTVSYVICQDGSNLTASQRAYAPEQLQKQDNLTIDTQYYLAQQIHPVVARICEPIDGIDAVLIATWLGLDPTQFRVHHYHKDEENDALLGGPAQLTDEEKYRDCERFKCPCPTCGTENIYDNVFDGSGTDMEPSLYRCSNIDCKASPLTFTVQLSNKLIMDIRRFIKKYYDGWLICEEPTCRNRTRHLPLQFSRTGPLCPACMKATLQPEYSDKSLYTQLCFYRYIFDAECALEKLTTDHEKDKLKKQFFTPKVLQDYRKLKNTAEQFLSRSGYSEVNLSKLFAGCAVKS

| Compound | tested on | test | system | setting | quantity | result |
| --- | --- | --- | --- | --- | --- | --- |
| C[C@]12COc3ccc(Oc4ccccc4)cc3[C@H]1CCN2 | SIGMAR1 | cell-free assay, radioligand | – | – | Ki | 1.9 nM |
| Nc1ncc(-c2nc(N3CCOCC3)nc(N3CCN(C(=O)CCC(=O)NCCCCCCCCNc4cccc5c4C(=O)N(C4CCC(=O)NC4=O)C5=O)CC3)n2)c(C(F)F)n1 (stereo not shown) | PIK3CA | ligand displacement, TR-FRET | – | – | Ki | 1.85 nM |
| O=C(NCCCCCCOP(=O)(O)OP(=O)(O)OP(=O)(O)O)OCC1c2ccccc2-c2ccccc21 | POLA1 (Homo sapiens, UniProt P09884) | enzyme activity, inhibitor, radiometric | – | – | Ki | 145000 nM |
| OC1CCCCC1N1CCC(c2ccc(Br)cc2)CC1 (racemic) | SIGMAR1 | displacement, radioligand binding | HEK293 | together with: [3H](+)-pentazocine | Ki | 4.8 ± 2.2 nM |
| C[C@]12COc3ccc(OCc4ccccc4C(F)(F)F)cc3[C@H]1CCN2 | SIGMAR1 | cell-free assay, radioligand | – | – | Ki | 2.7 nM |
| Oc1cc(O)c2cc(O[C@@H]3OC[C@H](O)[C@H](O)[C@H]3O)c(-c3ccc(O)c(O)c3)[o+]c2c1 | PPO3 (Agaricus bisporus, UniProt C7FF04) | enzyme activity, inhibitor | – | – | Ki | 16100 nM |
| Nc1ncc(-c2nc(N3CCOCC3)nc(N3CCN(C(=O)CCC(=O)NCCCCCCNc4cccc5c4C(=O)N(C4CCC(=O)NC4=O)C5=O)CC3)n2)c(C(F)F)n1 (stereo not shown) | PIK3CA | ligand displacement, TR-FRET | – | – | Ki | 1.85 nM |
| Fc1cccc(COc2ccc(Nc3ncnc4ccc(-c5ccc(N6CCOCC6)cc5)cc34)cc2Cl)c1 | Leishmania major | intracellular amastigote growth, luciferase | RAW264.7 macrophages | – | EC50 | > 15000 nM |
| CNCc1ccccc1OCc1ccc(C)cc1 | Slc6a4 | ligand displacement, radioligand | – | – | Ki | 28.4 nM |
| Nc1ncc(-c2nc(N3CCOCC3)nc(N3CCOCC3)n2)c(C(F)F)n1 | PIK3CA | ligand displacement, TR-FRET | – | – | Ki | 2.84 nM |
| Cn1ccc2c(N3CCN(CCCCOc4ccc5c(c4)NC(=O)CC5)CC3)cccc21 | HTR7 (Homo sapiens, UniProt P34969) | ligand displacement, radioligand | – | – | Ki | 53 nM |
| O[C@@H]1Cc2cccc(OCCF)c2C[C@H]1N1CCC(c2ccccc2)CC1 | SIGMAR1 | displacement, radioligand binding | HEK293 | together with: [3H](+)-pentazocine | Ki | 2300 ± 400 nM |
| Nc1ncc(-c2nc(N3CCOCC3)nc(N3CCN(C(=O)CCC(=O)NCCCCCCCCCCNc4cccc5c4C(=O)N(C4CCC(=O)NC4=O)C5=O)CC3)n2)c(C(F)F)n1 (stereo not shown) | PIK3CA | ligand displacement, TR-FRET | – | – | Ki | 3.43 nM |
| CN(C)C(CNC(=O)c1ccc2c3c(cccc13)CC2)c1ccccc1 (stereo not shown) | Slc6a4 | ligand displacement, radioligand | – | – | Ki | 127 nM |
| CCC1(CC)CC(=O)N(C2c3cc(C(=O)NC4c5ccccc5CC4O)ccc3OC2(C)COC)C(=N)N1 (stereo not shown) | Cathepsin D (CTSD, Homo sapiens, UniProt P07339) | enzyme activity, inhibitor | – | – | Ki | 2840 nM |
| C[C@]12COc3ccc(OCc4ccc5ccccc5c4)cc3[C@H]1CCN2 | SIGMAR1 | cell-free assay, radioligand | – | – | Ki | 10 nM |
| OCC1CCCN1Cc1cccc(Oc2ccccc2)c1 (stereo not shown) | Slc6a4 | ligand displacement, radioligand | – | – | Ki | 926 nM |
| CCCCN1CCC(COC(=O)c2ccc(N)c(OCF)c2)CC1 [fluorine-18 labelled] | SIGMAR1 | NIMH-PDSP radioligand binding | – | – | Ki | 72 nM |
| Cc1ccc2c(c1)C1CN(C)CCC1N2Sc1ccccc1[N+](=O)[O-] (stereo not shown) | Slc6a4 | ligand displacement, radioligand | – | – | Ki | 268 nM |
| Fc1cccc(COc2ccc(Nc3ncnc4ccc(-c5ccc(CN6CCCCC6)cc5)cc34)cc2Cl)c1 | Leishmania major | intracellular amastigote growth, luciferase | RAW264.7 macrophages | – | EC50 | 5500 nM |
| COc1ccc(C(CCN)c2ccc(F)cc2)cc1 (stereo not shown) | Slc6a4 | ligand displacement, radioligand | – | – | Ki | 22.3 nM |
| CN1CC[C@@H](COc2cnc(C#N)cc2-c2ccn3nc(NC(=O)C4CC4)cc3c2)C1 | SIK3 (Homo sapiens, UniProt Q9Y2K2) | enzyme activity, inhibitor | – | – | Ki | 51 nM |

For quick reference, copied from above:
| Compound | tested on | test | system | setting | quantity | result |
| --- | --- | --- | --- | --- | --- | --- |
| CN1CC[C@@H](COc2cnc(C#N)cc2-c2ccn3nc(NC(=O)C4CC4)cc3c2)C1 | SIK3 (Homo sapiens, UniProt Q9Y2K2) | enzyme activity, inhibitor | – | – | Ki | 51 nM |
| Cc1ccc2c(c1)C1CN(C)CCC1N2Sc1ccccc1[N+](=O)[O-] (stereo not shown) | Slc6a4 | ligand displacement, radioligand | – | – | Ki | 268 nM |
